{"data": "Results pooled from the literature", "note": "Each numbered part is a random draw from the data of one study; scales do not carry over between parts.", "chain of UniProt Q03431 (whole entry, looked up)": "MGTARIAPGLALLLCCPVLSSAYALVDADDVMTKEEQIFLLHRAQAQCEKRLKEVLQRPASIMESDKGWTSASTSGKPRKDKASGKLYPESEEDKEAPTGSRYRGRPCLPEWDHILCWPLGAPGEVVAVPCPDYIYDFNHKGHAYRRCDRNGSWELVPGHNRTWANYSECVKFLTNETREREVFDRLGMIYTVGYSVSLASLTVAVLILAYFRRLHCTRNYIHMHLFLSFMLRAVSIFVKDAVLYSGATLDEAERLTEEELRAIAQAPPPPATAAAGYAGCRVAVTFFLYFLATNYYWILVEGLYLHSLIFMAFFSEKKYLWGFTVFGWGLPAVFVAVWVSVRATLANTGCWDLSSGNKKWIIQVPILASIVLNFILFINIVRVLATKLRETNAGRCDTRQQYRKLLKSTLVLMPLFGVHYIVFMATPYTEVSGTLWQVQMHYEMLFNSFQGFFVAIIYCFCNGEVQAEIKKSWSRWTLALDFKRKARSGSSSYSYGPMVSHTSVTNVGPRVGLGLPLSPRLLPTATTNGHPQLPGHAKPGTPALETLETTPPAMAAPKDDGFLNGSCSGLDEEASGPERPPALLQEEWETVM", "chain of UniProt P43088 (whole entry, looked up)": "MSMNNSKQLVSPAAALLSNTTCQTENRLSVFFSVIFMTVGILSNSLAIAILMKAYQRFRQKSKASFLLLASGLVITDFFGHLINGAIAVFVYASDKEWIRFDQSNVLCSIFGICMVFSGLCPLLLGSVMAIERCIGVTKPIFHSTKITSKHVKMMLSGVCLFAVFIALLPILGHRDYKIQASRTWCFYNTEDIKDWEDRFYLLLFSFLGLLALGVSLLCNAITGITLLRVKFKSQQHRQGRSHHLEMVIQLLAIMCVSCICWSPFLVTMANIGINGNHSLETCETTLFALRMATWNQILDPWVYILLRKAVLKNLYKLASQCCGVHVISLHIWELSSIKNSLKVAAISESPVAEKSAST", "chain of UniProt Q9Y5N1 (whole entry, looked up)": "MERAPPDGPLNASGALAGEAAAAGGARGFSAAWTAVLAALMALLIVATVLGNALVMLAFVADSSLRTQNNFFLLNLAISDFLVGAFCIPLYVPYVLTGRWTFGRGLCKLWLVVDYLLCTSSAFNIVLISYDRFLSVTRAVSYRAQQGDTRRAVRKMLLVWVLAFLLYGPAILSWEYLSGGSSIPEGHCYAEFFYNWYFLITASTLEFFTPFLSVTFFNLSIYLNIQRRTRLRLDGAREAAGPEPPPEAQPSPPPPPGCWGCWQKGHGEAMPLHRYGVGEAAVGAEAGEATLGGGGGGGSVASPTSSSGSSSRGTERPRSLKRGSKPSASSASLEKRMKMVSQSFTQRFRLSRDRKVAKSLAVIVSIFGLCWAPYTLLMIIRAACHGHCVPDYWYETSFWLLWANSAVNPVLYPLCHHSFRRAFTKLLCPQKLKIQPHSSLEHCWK", "chain of UniProt Q86Y34 (whole entry, looked up)": "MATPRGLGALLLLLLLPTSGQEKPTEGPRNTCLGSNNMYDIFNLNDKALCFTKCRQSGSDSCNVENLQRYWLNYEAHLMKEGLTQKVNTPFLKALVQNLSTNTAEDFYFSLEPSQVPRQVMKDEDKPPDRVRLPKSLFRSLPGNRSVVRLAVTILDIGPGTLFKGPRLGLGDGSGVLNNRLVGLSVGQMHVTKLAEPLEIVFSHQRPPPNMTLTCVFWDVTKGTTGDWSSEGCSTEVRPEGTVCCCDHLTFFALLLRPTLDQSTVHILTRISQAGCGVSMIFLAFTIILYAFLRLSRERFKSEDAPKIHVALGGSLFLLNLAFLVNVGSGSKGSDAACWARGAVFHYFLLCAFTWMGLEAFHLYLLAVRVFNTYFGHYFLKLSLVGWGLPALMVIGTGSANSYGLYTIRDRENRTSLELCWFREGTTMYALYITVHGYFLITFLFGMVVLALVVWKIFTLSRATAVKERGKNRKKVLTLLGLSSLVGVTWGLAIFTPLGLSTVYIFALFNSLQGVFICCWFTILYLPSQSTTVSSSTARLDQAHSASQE", "chain of UniProt P30939 (whole entry, looked up)": "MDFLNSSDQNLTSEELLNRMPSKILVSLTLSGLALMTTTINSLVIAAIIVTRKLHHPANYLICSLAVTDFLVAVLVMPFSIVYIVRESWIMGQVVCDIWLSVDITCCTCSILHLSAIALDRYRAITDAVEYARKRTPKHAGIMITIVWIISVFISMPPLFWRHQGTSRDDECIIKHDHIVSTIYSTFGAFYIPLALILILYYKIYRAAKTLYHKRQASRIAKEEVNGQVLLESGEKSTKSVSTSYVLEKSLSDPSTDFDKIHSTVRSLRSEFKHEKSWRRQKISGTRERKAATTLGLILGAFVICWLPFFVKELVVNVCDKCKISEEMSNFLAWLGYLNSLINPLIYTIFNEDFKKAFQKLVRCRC", "chain of UniProt P78362 (whole entry, looked up)": "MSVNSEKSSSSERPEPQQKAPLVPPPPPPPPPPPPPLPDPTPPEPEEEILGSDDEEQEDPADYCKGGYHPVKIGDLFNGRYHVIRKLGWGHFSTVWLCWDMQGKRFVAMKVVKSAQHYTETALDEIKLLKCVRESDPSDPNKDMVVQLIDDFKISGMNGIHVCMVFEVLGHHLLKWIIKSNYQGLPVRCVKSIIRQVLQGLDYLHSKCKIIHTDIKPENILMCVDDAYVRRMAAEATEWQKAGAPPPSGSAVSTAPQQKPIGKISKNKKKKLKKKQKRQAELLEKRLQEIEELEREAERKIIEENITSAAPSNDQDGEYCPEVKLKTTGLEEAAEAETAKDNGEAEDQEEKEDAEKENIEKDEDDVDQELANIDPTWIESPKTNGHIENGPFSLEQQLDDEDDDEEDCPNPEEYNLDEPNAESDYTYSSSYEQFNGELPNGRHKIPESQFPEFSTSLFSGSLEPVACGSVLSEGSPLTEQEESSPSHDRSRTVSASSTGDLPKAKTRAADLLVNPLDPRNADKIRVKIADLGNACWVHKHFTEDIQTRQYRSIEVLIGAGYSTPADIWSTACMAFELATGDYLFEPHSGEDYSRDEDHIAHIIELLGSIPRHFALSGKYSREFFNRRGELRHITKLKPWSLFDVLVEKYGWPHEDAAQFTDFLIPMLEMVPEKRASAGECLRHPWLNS", "chain of UniProt Q52WX2 (whole entry, looked up)": "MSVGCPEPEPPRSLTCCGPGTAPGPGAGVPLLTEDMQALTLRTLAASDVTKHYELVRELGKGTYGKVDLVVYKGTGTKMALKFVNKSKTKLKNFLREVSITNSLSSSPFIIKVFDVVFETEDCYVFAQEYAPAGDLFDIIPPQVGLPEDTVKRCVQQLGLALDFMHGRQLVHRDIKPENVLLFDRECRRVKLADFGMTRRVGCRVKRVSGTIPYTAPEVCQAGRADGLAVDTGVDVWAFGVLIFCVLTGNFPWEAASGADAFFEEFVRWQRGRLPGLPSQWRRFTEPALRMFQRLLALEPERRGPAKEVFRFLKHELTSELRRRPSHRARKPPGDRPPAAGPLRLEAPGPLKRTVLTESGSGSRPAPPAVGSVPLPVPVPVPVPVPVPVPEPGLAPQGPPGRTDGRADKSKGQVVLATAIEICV", "chain of UniProt P50406 (whole entry, looked up)": "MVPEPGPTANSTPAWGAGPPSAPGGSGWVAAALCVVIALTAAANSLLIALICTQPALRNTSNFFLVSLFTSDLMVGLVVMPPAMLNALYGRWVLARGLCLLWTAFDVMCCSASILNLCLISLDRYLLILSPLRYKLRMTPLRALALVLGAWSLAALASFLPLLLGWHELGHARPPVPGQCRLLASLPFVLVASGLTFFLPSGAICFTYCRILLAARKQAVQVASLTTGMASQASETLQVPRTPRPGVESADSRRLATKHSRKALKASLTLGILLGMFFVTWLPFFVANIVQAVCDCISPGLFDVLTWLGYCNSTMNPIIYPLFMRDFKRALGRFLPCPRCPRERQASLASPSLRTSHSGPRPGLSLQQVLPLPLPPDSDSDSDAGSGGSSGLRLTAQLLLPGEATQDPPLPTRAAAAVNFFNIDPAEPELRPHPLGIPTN"}
{"data": "Sample 1", "SMILES": "CS(=O)(=O)c1cc(C2(NC(=O)c3cncc4c3cnn4-c3ccc(F)cc3)CC2)ccn1", "read-out": "cell-free assay", "tested at": "10 µM"}
{"target": "ADRA1A (Homo sapiens, UniProt P35348)", "inhibition": "-7.71%"}
{"target": "ADRB3 (Homo sapiens, UniProt P13945)", "inhibition": "-5.91%"}
{"target": "HTR6 (Homo sapiens, UniProt P50406)", "inhibition": "-21.8%"}
{"target": "HRH3 (Homo sapiens, UniProt Q9Y5N1)", "inhibition": "29.6%"}
{"target": "DRD1 (Homo sapiens, UniProt P21728)", "inhibition": "-12.6%"}
{"data": "Sample 2", "target": "Dual specificity protein kinase TTK (TTK, Homo sapiens, UniProt P33981)", "read-out": "enzyme activity", "action": "inhibitor", "tested at": "0.5 µM", "baseline": "control", "chain of UniProt P33981 (whole entry, looked up)": "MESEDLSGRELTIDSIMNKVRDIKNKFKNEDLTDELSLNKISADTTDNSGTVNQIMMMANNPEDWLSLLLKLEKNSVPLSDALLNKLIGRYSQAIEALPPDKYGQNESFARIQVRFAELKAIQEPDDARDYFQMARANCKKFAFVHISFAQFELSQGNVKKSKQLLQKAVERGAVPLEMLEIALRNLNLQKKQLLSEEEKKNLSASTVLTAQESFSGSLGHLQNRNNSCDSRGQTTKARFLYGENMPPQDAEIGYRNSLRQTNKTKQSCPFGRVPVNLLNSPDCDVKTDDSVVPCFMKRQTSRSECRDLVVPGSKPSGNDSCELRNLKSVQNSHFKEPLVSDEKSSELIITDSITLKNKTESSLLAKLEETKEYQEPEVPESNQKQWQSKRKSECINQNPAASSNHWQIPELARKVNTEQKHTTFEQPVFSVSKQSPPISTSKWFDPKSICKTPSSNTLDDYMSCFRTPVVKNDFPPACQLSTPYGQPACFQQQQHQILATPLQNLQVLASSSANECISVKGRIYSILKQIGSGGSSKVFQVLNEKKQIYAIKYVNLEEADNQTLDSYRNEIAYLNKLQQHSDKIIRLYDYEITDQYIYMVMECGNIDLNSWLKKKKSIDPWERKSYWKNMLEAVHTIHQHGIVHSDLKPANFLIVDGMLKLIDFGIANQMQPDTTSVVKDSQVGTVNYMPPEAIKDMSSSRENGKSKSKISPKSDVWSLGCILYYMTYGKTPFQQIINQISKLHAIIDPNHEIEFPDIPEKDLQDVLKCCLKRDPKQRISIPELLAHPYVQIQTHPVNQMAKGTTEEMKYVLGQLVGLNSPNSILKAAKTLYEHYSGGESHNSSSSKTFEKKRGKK"}
{"SMILES": "Cc1ccc(Nc2nccc(N(C)c3ccc4c(C)n(C)nc4c3)n2)cc1S(N)(=O)=O", "remaining activity": "73.4%"}
{"SMILES": "O=C(O)c1ccc2c3c1cccc3c(=O)n1c3ccccc3nc21", "remaining activity": "81%"}
{"SMILES": "Cc1cccc(-c2[nH]c(C(C)(C)C)nc2-c2ccc3c(c2)OCO3)n1", "remaining activity": "89%"}
{"SMILES": "OCC(O)CCON=C1C(c2c(O)[nH]c3ccccc23)=Nc2ccccc21 (centres unmarked)", "remaining activity": "46.1%"}
{"SMILES": "NCCNc1ncc(C(N)=O)c(Nc2cccc(C(F)(F)F)c2)n1", "remaining activity": "112%"}
{"SMILES": "COc1cc2nccc(Oc3ccc(NC(=S)NC(=O)c4ccccc4C)cc3)c2cc1OC", "remaining activity": "101%"}
{"SMILES": "CN(C)c1ccc(C=C2C(=O)Nc3ccccc32)cc1", "remaining activity": "99.7%"}
{"SMILES": "COc1ccc(C(=O)Nc2sc3c(c2C(N)=O)CCCC3)cc1OC", "remaining activity": "95.6%"}
{"SMILES": "O=C1NC(=O)C(c2cn(CCCO)c3ncccc23)=C1c1cnccn1", "remaining activity": "94.5%"}
{"SMILES": "O=C(Nc1cccc(Nc2cc(Nc3cccc(C(F)(F)F)c3)ncn2)c1)C1CC1", "remaining activity": "98.7%"}
{"SMILES": "O=C1NC(=O)C(c2cn(CCCn3ccnc3)c3ccccc23)=C1Nc1ccccc1", "remaining activity": "121%"}
{"SMILES": "Cn1c2ccccc2c2c3c(c4c5ccccc5n(CCC#N)c4c21)CNC3=O", "remaining activity": "69%"}
{"SMILES": "Nc1ccc2ncnc(NCCc3ccc(Oc4ccccc4)cc3)c2c1", "remaining activity": "97.6%"}
{"SMILES": "Nc1[nH]nc2nc3ccccc3nc12", "remaining activity": "102%"}
{"SMILES": "Cn1sc(=O)n(Cc2ccccc2)c1=O", "remaining activity": "101%"}
{"data": "Sample 3", "SMILES": "CC(C)S(=O)(=O)c1ccc2nccc(Nc3ccc4sc(C5CCCC5)nc4c3)c2c1.Cl", "read-out": "kinase activity", "action": "inhibitor", "tested at": "1 µM"}
{"target": "SRPK2 (Homo sapiens, UniProt P78362)", "remaining activity [%]": 100}
{"target": "HIPK3 (Homo sapiens, UniProt Q9H422)", "remaining activity [%]": 104}
{"target": "PRKCG (Homo sapiens, UniProt P05129)", "remaining activity [%]": 103}
{"target": "SBK1 (Homo sapiens, UniProt Q52WX2)", "remaining activity [%]": 97}
{"target": "CDKL3 (Homo sapiens, UniProt Q8IVW4)", "remaining activity [%]": 72}
{"data": "Sample 4", "Compound": "N=C(N)NC(=O)c1cnn(-c2cccc3ncccc23)c1C1CC1", "read-out": "β-arrestin recruitment", "action": "agonist", "method": "PRESTO-Tango", "tested at": "10 µM", "baseline": "untreated"}
{"target": "ADGRG3 (Homo sapiens, UniProt Q86Y34)", "fold over basal": 1.42}
{"target": "Mas-related G-protein coupled receptor member G (MRGPRG, Homo sapiens, UniProt Q86SM5)", "fold over basal": 1.43}
{"target": "HTR1F (Homo sapiens, UniProt P30939)", "fold over basal": 0.75}
{"target": "PTH1R (Homo sapiens, UniProt Q03431)", "fold over basal": 0.92}
{"target": "PTGFR (Homo sapiens, UniProt P43088)", "fold over basal": 0.96}
{"target": "PTGER3 (Homo sapiens, UniProt P43115)", "fold over basal": 1.13}
{"data": "Sample 5", "Structure (SMILES)": "CC(C)n1cnc(-c2ccc(F)cc2)c1-c1ncc(C(=O)Nc2ccc(N3CCN(C)CC3)cc2)[nH]1", "method": "Phase 2a trial", "host": "idiopathic pulmonary fibrosis patients"}
{"assay": "item: respiratory tract infection", "setting": "dose not given, grade 3 maximum intensity, all arms", "patients with adverse events": "0%"}
{"assay": "item: bile acids increased", "setting": "30 mg once daily, grade 2 maximum intensity", "patients with adverse events": "0%"}
{"assay": "item: respiratory tract infection", "setting": "60 mg once daily, grade 5 maximum intensity", "patients with adverse events": "0%"}
{"assay": "item: eye disorders (SOC)", "setting": "30 mg once daily, grade 2 maximum intensity", "patients with adverse events": "0%"}
{"note": "Excerpt of the above (sample 2):"}
{"SMILES": "COc1cc2nccc(Oc3ccc(NC(=S)NC(=O)c4ccccc4C)cc3)c2cc1OC", "remaining activity": "101%"}
{"SMILES": "CN(C)c1ccc(C=C2C(=O)Nc3ccccc32)cc1", "remaining activity": "99.7%"}
